Published values pooled from the literature.
Each line is one published result; not all experiments were run side by side. ± marks the error that the study gave.

Molecule | test | system | conditions | how to read | endpoint | result
CC[C@H](C)[C@H](NC(=O)[C@@H](CCCNC(=N)N)NC(=O)[C@H](CCCNC(=N)N)NC(=O)[C@@H]1CCCN1C(=O)[C@@H]1CCCN1C(=O)[C@H](CCCNC(=N)N)NC(=O)[C@@H]1CCCN1C(=O)[C@H](CCCNC(=N)N)NC(=O)[C@@H]1CCCN1C(=O)[C@H](CC(C)C)NC(=O)[C@H](Cc1ccc(O)cc1)NC(=O)[C@@H]1CCCN1C(=O)[C@@H]1CCCN1C(=O)[C@H](CCCCN)NC(=O)[C@H](CC(=O)O)NC(=O)[C@@H](N)C(C)C)C(=O)N[C@@H](Cc1ccc(O)cc1)C(=O)N[C@@H](CC(N)=O)C(=O)N[C@H](CCCNC(=N)N)C(N)=O | binding, fluorescence polarization | 70S ribosome, Escherichia coli BW25113 | 90 min, pH 7.6, 28 °C, with: fluorescein-labelled peptide |  | Kd | 75 ± 4 nM
Cc1nn(-c2ccccc2)c(NC(=O)NS(=O)(=O)c2ccc(Cl)cc2)c1C#N | antagonist, von Frey | mouse | intrathecal, dose not given, with: capsaicin |  | mechanical allodynia | no effect
CC(=O)N[C@@H](CC(C)C)C(=O)N1CCC[C@H]1C(=O)N[C@@H](Cc1ccc(O)cc1)C(=O)N1CCC[C@H]1C(=O)N[C@@H](CCCCN)C(N)=O | DSC | SOPC/cholesterol 6/4 bilayers | 5 mol%, pH 7.40 |  | transition enthalpy | 0.2 kcal/mol
O=S(=O)(F)Cc1ccccc1 | inhibitor | mouse microglia conditioned medium | concentration not given, with: Aβ1-42 1 µg/mL | reference: vehicle | Aβ degradation | inhibited
c1cc2ccc3cccc4ccc(c1)c2c34 | inducer | female rat, liver | oral, 1 mg, 24 h, sesame oil vehicle |  | menadione reductase activity | 15.7 enzyme units
CC#CCn1c(N2CCC[C@@H](N)C2)nc2c1c(=O)n(Cc1nc(C)c3ccccc3n1)c(=O)n2C | oral glucose tolerance test | HFD/STZ type 2 diabetic rat | oral, 10 mg/kg, with: glucose 1 g/kg |  | glucose AUC | 498 ± 55.1 mg·min/dL
CC(NC(C)(C)C)C(=O)c1cccc(Cl)c1 (stereo not drawn) | nicotine conditioned place preference, antagonist | mouse | sc, with: nicotine 0.5 mg/kg sc |  | ED50 | 0.35 mg/kg
atrial natriuretic peptide |  | rat high-fat streptozotocin diabetes | subcutaneous pump, 2 pmol/kg/min, 6 weeks, with: sacubitril 18 mg/kg/day oral |  | ejection fraction | ~85%
acyline |  | human men | sc, 300 µg/kg, 24 h |  | serum testosterone | 46 ± 10 ng/dL
CNCCC(Oc1ccc(C(F)(F)F)cc1)c1ccccc1 (stereo not drawn) | tail suspension test | VMAT2 heterozygous mice | intraperitoneal, 20 mg/kg, 30 min | reference: vehicle | immobility time | decreased
CSCC[C@H](NC(=O)[C@@H](N)CCSC)C(=O)N[C@@H](CC(C)C)C(=O)N[C@@H](CCCNC(=N)N)C(=O)N[C@@H](CC(=O)O)C(=O)N[C@@H](CCCNC(=N)N)C(=O)N[C@@H](Cc1c[nH]c2ccccc12)C(=O)N[C@@H](CO)C(=O)N[C@@H](CC(C)C)C(=O)O |  | PBMC, human, HSV-1 seropositive, HLA-A*0201+ | 10 µg/mL, 72 h |  | IFN-γ+ CD8+ T cells | ≤ 3.6%
C[C@@H]1N(C)C(C)(C)CO[C@@]1(O)c1cccc(Cl)c1 | nicotine antinociception blockade, antagonist, tail-flick test | mouse | 15 min pretreatment, with: nicotine 2.5 mg/kg subcutaneous |  | ED50 | 0.016 mg/kg
CS(=O)(=O)c1ccc(C2=C(c3ccccc3)C(=O)OC2)cc1 | paw withdrawal latency | mouse, capsaicin-induced mechanical allodynia | subcutaneous, dose not given, with: punctate stimulus 0.5 g force |  | antiallodynic effect | inactive
CN[C@@H]1[C@@H](O)[C@@H](O[C@@H]2[C@@H](O)[C@H](O[C@H]3O[C@H]([C@@H](C)O)[C@@H](O)[C@H](O)[C@H]3N)[C@@H](N)C[C@H]2N)OC[C@]1(C)O | luciferase synthesis, inhibitor, coupled transcription-translation | M. smegmatis 70S ribosomes, Leishmania/Trypanosoma hybrid | 60 min, 37 °C |  | IC50 | 20 nM
C=C[C@H]1[C@H]2CCC[C@]1(c1cccc(C(N)=O)c1)CCN2CCc1ccccc1 | pain-depressed locomotion | mice | subcutaneous, 18 mg/kg, with: intraperitoneal lactic acid | reference: vehicle | time of significant antinociception | 30 min
CC[C@H](C)[C@H](NC(=O)[C@@H](NC(=O)[C@@H](NC(=O)[C@H](CC(C)C)NC(=O)[C@@H](N)CC(=O)O)[C@@H](C)O)[C@@H](C)O)C(=O)N[C@@H](CCCNC(=N)N)C(=O)N[C@H](C(=O)N[C@H](C(=O)N[C@H](C(=O)N[C@@H](CS)C(=O)N[C@@H](CCC(=O)O)C(=O)NCC(=O)N[C@@H](CCCCN)C(=O)O)C(C)C)[C@@H](C)O)C(C)C | IFN-γ release, ELISPOT | splenocytes, BALB/c mouse immunised |  |  | EC50 | 1000 nM
CC1=C(C(=O)Cl)C(c2ccccc2C#N)NC(=S)N1 (stereo not drawn) | carotid artery cannulation | male Wistar rats, anaesthetised | 0.3 mL, 3 h |  | mean arterial pressure | 27 ± 1.44 mm Hg
Cc1ncc(COCc2cn(Cc3ccccc3C(F)(F)F)nn2)c(CO)c1O | Cu2+ chelation |  | 100 µM, 30 min, 37 °C, with: Cu2+ 100 µM |  | absorbance change | 0%
CC[C@H](C)[C@H](NC(=O)CNC(=O)[C@H](Cc1c[nH]c2ccccc12)NC(=O)CNC(C)=O)C(=O)N[C@@H](CCCCN)C(N)=O | DSC | SOPC/cholesterol 6/4 bilayers | 10 mol%, pH 7.40 |  | transition enthalpy | 0.7 kcal/mol
C[C@]12N3Cc4c(c(OCCCS(=O)(=O)[O-])c5ccccc5c4OCCCS(=O)(=O)[O-])CN1C(=O)N1CN4C(=O)N5CN6C(=O)N7CN8C(=O)N9Cc%10c(c(OCCCS(=O)(=O)[O-])c%11ccccc%11c%10OCCCS(=O)(=O)[O-])CN%10C(=O)N(CN%11C(=O)N(CN%12C(=O)N(CN(C3=O)[C@]12C)[C@@H]4[C@H]%125)[C@@H]6[C@H]%117)[C@]8(C)[C@@]9%10C.[Na+].[Na+].[Na+].[Na+] |  | Sprague-Dawley rat | intravenous, 80 mg/kg/min from 3 min, with: propofol i.v. bolus |  | time to recovery of righting reflex | 13 ± 1.3 min
CCCCCC(O)C=CC=O (stereo not drawn) | reaction with cysteine thiol |  | pH 7.4, corrected for thiolate fraction |  | log k | 1.76
O=c1c2ccccc2nc2n1c1nc(-c3ccccc3)cc(-c3ccc4ccccc4n3)c1c1nc3ccccc3c(=O)n12 | DPPH scavenging, absorbance |  | 30 min |  | IC50 | 124000 nM
CCOC(=O)C1=C(C)NC(=S)NC1c1ccccc1Cl (stereo not drawn) | carotid artery cannulation | male Wistar rats, anaesthetised | 0.3 mL, 3 h |  | mean arterial pressure | 22.7 ± 0.94 mm Hg
CC(C)[C@H](O)C(=O)N[C@H]1Cc2ccc3c(c2)[C@]2(C4=C(c5nc(CO)co5)N=C(O4)[C@H](C(C)(C)C)NC1=O)c1cc(F)ccc1N[C@@H]2O3 | tumour volume | mice, MIA PaCa-2 xenograft |  | reference: vehicle | minimum effective dose | 1.13 mg/m²
CC(=O)N[C@@H](CC(C)C)C(=O)NCC(=O)N[C@@H](Cc1ccc(O)cc1)C(=O)NCC(=O)N[C@@H](CCCCN)C(N)=O | DSC | SOPC/cholesterol 7/3 bilayers | 15 mol%, pH 7.40 |  | transition enthalpy | 1.2 kcal/mol
CC1=C(C(=O)O)C(c2ccccc2C#N)NC(=S)N1 (stereo not drawn) | carotid artery cannulation | male Wistar rats, anaesthetised | 0.3 mL, 3 h |  | mean arterial pressure | 24.7 ± 1.25 mm Hg
Cc1[nH]c(/C=C2\C(=O)Nc3ccc(F)cc32)c(C)c1C(=O)NCCN1CCCC1 |  | dogs with lung metastatic osteosarcoma | dose not given, single agent |  | median progression-free survival | 57 days

Excerpt of the above:
Molecule | test | system | conditions | how to read | endpoint | result
acyline |  | human men | sc, 300 µg/kg, 24 h |  | serum testosterone | 46 ± 10 ng/dL
CSCC[C@H](NC(=O)[C@@H](N)CCSC)C(=O)N[C@@H](CC(C)C)C(=O)N[C@@H](CCCNC(=N)N)C(=O)N[C@@H](CC(=O)O)C(=O)N[C@@H](CCCNC(=N)N)C(=O)N[C@@H](Cc1c[nH]c2ccccc12)C(=O)N[C@@H](CO)C(=O)N[C@@H](CC(C)C)C(=O)O |  | PBMC, human, HSV-1 seropositive, HLA-A*0201+ | 10 µg/mL, 72 h |  | IFN-γ+ CD8+ T cells | ≤ 3.6%
CC(C)[C@H](O)C(=O)N[C@H]1Cc2ccc3c(c2)[C@]2(C4=C(c5nc(CO)co5)N=C(O4)[C@H](C(C)(C)C)NC1=O)c1cc(F)ccc1N[C@@H]2O3 | tumour volume | mice, MIA PaCa-2 xenograft |  | reference: vehicle | minimum effective dose | 1.13 mg/m²
